Published values from different studies.
Numbered parts are unrelated; each lists some results of a single study.

Sample 1 — technique: Sort-seq; item: YFP reporter; sample: E. coli; setting: PhoQ-PhoP variant library; added: 10 µM Mg2+; relative to: high Mg2+ state; direction: higher = stronger signaling; quantity: fold induction
Substance: PhoQ, residues 284 288 289 292 302 303 SSCLAV
PhoP, residues 12 14 15 18 19 GMGLL (Escherichia coli, UniProt P23836): 5.21
PhoP, residues 12 14 15 18 19 QQAYL (Escherichia coli, UniProt P23836): 14.8
PhoP, residues 12 14 15 18 19 LFHKL (Escherichia coli, UniProt P23836): 3.25

Sample 2 — technique: RNA Bind-n-Seq; form: RNA; sample: in vitro; tested at: 365 nM; relative to: no-protein control; direction: higher = stronger binding; quantity: RBNS enrichment (R)
Target: RNA binding protein fox-1 homolog 2, RRM domain, GST-SBP tag (RBFOX2, Homo sapiens, UniProt O43251-10, residues 100-194)
Setting: natural RNA segment, single round, ends assumed
All sequences stand within: GGGAGUUCUACAGUCCGACGAUC … UGGAAUUCUCGGGUGCCAA
Construct (chain): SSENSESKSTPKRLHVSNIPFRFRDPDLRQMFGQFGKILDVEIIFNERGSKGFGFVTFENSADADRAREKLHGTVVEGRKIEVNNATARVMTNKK
AGGGAAGGGAGUGUAUAAGGAAGGAAACCUCAUACCCUCCAUUCCCAUCCCUGGAUAUAUUGCCUUUUCAGCAGCCUCGGGUUCAGUGUGCUUGGGGUCAGGAGUGCCAG: 0.366
UUAAGUACCAAAAGGCUAUGCUGUAUGAAUUUCAGAAAUGGACUGAAAAAAUGGAGAGCAGUGUAAUAGACACACACUACAUCGGAAGAACUGACUUCUGAAACGAAGAG: 0.67
GAUAAUUUGCAUACUCUAUUGUAUUAUUUGGAGUUAAAUCCUCACUUUGGGGGAGGGGGGAGCAAAGCCAAGCAAACCAAUGAUGAUCCUCUAUUUUGUGAUGACUCUGC: 0.903
UUUGAAUACAAUGCUACAUAUGAAUGUUGAAGCUGAUACAUUGCACAGUUCUGUAGACAUCACUACACCGAUGUAGUUUCUCAAAUUUUAGCAAUAUGCUCUACAUAAAA: 8.69
UGCAGAUGUGUCUGGACUUGAGCCCAGUGCUUUGGGGCCUUGAGACUCCAGCGACUGCACACCCGCUCUGUGCUGCGGCCAGGGAGGGUGAGAACCAUCGCUCCUUUGCC: 0.256
AGGUGGAGUGGAGUGUGGCAUGCAGGCUCUGUGGGGGCGCCAGUGCUCAGUUAGUUGUUGGUUAUUUAAAGCACACUCAGUUUGCACUCAUUUCCCCUAAACAACUGGCA: 5.79
CAUACAAGAUGACCCUCUGAGCUUUUCAUUUAUUCAAGCUCUGUGGUACAGCCUUUUUUUAAAAUAAAUUAAUCUAUAUUGGUUGACAAACAAGCCACCAACCACUGACU: 0.524
UCAAAAAAUCAGGUAGCAGUCCUAAAUGGACUCAUGACAAAUACCAAGGGGAUGGGAUUGUUGAAGAUGAAGAAGAGACCAUGGAAAAUAAUGAAGAAAAGAAGGACAGA: 0.83

Sample 3 — technique: protein-binding microarray; form: double-stranded DNA, one strand shown; sample: in vitro; tested at: 250 nM; setting: 60-bp whole probe; added: salmon DNA 0.4 mg/ml; relative to: random background probes; direction: higher = stronger binding; quantity: log fluorescence; all sequences stand within: GCCTAGCAC … GTCTTGATTCGCTTGACGCTGCTG
Target: Interferon regulatory factor 5, full length, phosphomimetic (IRF5, Homo sapiens, UniProt Q13568-2, residues 1-514, K96S/S451D/S453D/S456D/S462D)
TCATCTTTCTAATTCAAACTGTGCTAG: 1.59 z-score
TCAACACTAATTTTTACACTGTGCTAG: 0.823 z-score
GATGGTATCGGGTTTCGGGACGTGCTA: 5.39 z-score
TCATATATAATATATATTACTGTGCTA: 0.99 z-score
TCACCTTTCAATCCTAGACTGTGCTAG: 1.24 z-score
TTAGGTCCCGGTTTCGGTTAGTGCTAG: 8.11 z-score
TTAGAAATGGGGTATCGATTAGTGCTA: 2.99 z-score

Sample 4 — technique: protein-binding microarray; form: double-stranded DNA, one strand shown; sample: in vitro; tested at: 0.8 µM; setting: whole 60-bp probe, no competitor; direction: higher = stronger binding; quantity: fluorescence intensity; all sequences stand within: … GTCTTGATTCGCTTGACGCTGCTG
Target: Centromere-binding protein 1, full length, N-terminal tag (CBF1, Saccharomyces cerevisiae, UniProt P17106, residues 1-351)
Chain of UniProt P17106 (whole entry, looked up): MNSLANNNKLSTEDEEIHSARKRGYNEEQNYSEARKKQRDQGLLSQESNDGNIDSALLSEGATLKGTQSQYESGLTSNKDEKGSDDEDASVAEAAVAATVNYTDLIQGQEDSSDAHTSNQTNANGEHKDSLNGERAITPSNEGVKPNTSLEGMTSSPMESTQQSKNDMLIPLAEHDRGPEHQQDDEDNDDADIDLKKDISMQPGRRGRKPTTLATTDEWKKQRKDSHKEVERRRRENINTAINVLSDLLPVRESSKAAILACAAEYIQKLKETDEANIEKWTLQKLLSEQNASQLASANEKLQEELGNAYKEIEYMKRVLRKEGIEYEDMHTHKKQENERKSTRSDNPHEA
GAAACGGCATTTTCACTGGTGATGCACGCCCAGTAG: 533 a.u.
GAATCTCTTAGGTTACACGCAACTAAACTTTTTTAG: 518 a.u.
CTAATCTAAATAATTAATGTGCACGTCAATATATTC: 545 a.u.
CTACCGTAGTCATCGTGACTGGTTGACGTATTATTC: 786 a.u.
CTATTTCTGCTCCATCGCGTGCTCGAGACTATATTC: 668 a.u.
CTATGGAACCACTATCATCAGAATTATCGCCAATTC: 509 a.u.
GAAATAACATTACCATACGTGATCTTATTAAACTAG: 710 a.u.

Repeated from above (sample 1):
PhoP, residues 12 14 15 18 19 QQAYL (Escherichia coli, UniProt P23836): 14.8
PhoP, residues 12 14 15 18 19 LFHKL (Escherichia coli, UniProt P23836): 3.25
